Measured values pooled from the literature.
Compare with care: the assays were run in different laboratories. ± marks the error that the study gave. ≈ marks a conversion by molar mass, not a printed value.

| Substance | cell line | assay | test system | setting | how to read | quantity | result |
| --- | --- | --- | --- | --- | --- | --- | --- |
| CN(C)c1ccc(O)c2c1C[C@H]1C[C@H]3[C@H](N(C)C)C(O)=C(C(N)=O)C(=O)[C@@]3(O)C(O)=C1C2=O | COS | cytotoxicity, resazurin | – | 10% fetal calf serum | – | TC50 | > 100 µg/mL |
| O=C1OC2(c3ccc(O)cc3Oc3cc(O)ccc32)c2ccccc21 | bovine brain microvessel endothelial cells | – | BBMEC monolayer | 10 µM, up to 60 min, apical to basolateral | – | Papp | 3.42e-05 cm/s |
| CCc1ccc2oc(-c3ccc(O)c(O)c3)c(O)c(=O)c2c1 | H4IIE | MTT | – | concentration not given, 24 h | reference: with over without cyclosporin A | difference in toxicity | 29.7% |
| O=c1ccn([C@H]2C=C[C@@H](CO)O2)c(=O)[nH]1 | PHA-stimulated human PBM cells | cell growth, trypan blue exclusion | – | 6 d | – | IC50 | > 100 µM |
| CCCc1ccc2oc(-c3ccc(O)c(O)c3)c(O)c(=O)c2c1 | H4IIE | MTT | – | concentration not given, 24 h | reference: with over without cyclosporin A | difference in toxicity | 54.3% |
| CCC/C=C1\OC(=O)C2=C1CCC=C2 | Hepa-1c1c7 | cytotoxicity, crystal violet | – | 48 h | – | IC50 | > 20 µM |
| NS(=O)(=O)c1ccc(NC(=O)Nc2ccc(F)cc2)cc1 | human peripheral blood lymphocytes | cell growth, resazurin | – | 72 h, together with: PHA stimulation | – | GI50 | > 10 µM |
| CN(CC(=O)O)C(=O)CN | MDCKII-MDR1 | – | – | 60 min, pH 7.4 | – | Papp A-B | 11.7 ± 0.6 ×10⁻⁶ cm/s |
| NASC | PC-12 | CellTiter-Glo | peptide | 1 mM, 72 h, 37 °C | reference: vehicle | viability | 101 ± 1.44% |
| CC(=O)Oc1ccc(-c2cc3ccc(OC(C)=O)c(OC(C)=O)c3oc2=O)cc1 | MRC9 | cell growth or viability, crystal violet | – | 48 h | – | CC50 | 83.3 µM |
| O=C1C(Cl)=C(N2C(=O)COCC2=O)C(=O)c2ccccc21 | BALB/c 3T3 clone A31 | cytotoxicity, MTT | – | 48 h | – | IC50 | 35.5 ± 1.76 µM |
| Telavancin | rat embryo fibroblasts | – | – | 72 h, 37 °C, 10% fetal calf serum, concentration range | – | uptake clearance | 9 ± 0.7 µL/mg protein/h |
| CN(C)c1cc(CNCC(C)(C)C)c(O)c2c1C[C@H]1C[C@H]3[C@H](N(C)C)C(O)=C(C(N)=O)C(=O)[C@@]3(O)C(O)=C1C2=O | CHO | cytotoxicity, resazurin | – | 10% fetal calf serum | – | TC50 | > 100 µg/mL |
| O=C1/C(=C/c2ccccc2)C(NC2CCCCC2)c2ccccc21 (stereo not drawn) | EA.hy926 | cell loss, nuclear condensation, propidium iodide staining | – | 6 h | – | cytotoxic concentration | > 25 µM |
| O=c1[nH]c(=O)n([C@H]2C[C@H](O)[C@@H](CO)O2)cc1I | PHA-stimulated human PBM cells | cell growth, trypan blue exclusion | – | 6 d | – | IC50 | > 100 µM |
| Cc1cc(O)c(C23CC4CC(CC(C4)C2)C3)cc1-c1ccc2cc(C(=O)O)ccc2c1Cl | Jurkat | – | – | 5 µM, 4 h | reference: DMSO | caspase-3/7 activity | > 40 fold |
| Oc1cc2nc(c1)CNCCNCCNC2 | HT-22 | cell growth or viability, MTT | – | – | – | IC50 | 298 µM |
| CCc1nc(N)nc(N)c1-c1ccc(Cl)cc1 | L929 | MTT | – | 24 h, 10% FBS | – | CC30 | 111 µg/mL (≈ 445 µM) |
| CN(C)c1cc(NC(=O)CNC(C)(C)C)c(O)c2c1C[C@H]1C[C@H]3[C@H](N(C)C)C(O)=C(C(N)=O)C(=O)[C@@]3(O)C(O)=C1C2=O | COS | cytotoxicity, resazurin | – | 10% fetal calf serum | – | TC50 | > 100 µg/mL |
| C=C[C@]1(C)CC[C@H]2C(=C1C#N)c1c([nH]c3ccccc13)C2(C)C (relative stereo) | NCI-H460 | cytotoxicity | – | – | – | IC50 | > 40 µM |
| CC(C)OC(=O)c1ccnc2cc(C(OCCN3CCCCC3)c3cccc(NC(=O)/C=C/CN(C)C)c3)sc12 (stereo not drawn) | BT-474 | CellTiter-Glo | – | 24 h | – | concentration at steep viability loss | > 5 µM |
| O=C1C(Cl)=C(N2C(=O)c3ccccc3C2=O)C(=O)c2ccccc21 | BALB/c 3T3 clone A31 | cytotoxicity, MTT | – | 48 h | – | IC50 | 253.7 ± 1.87 µM |
| c1cc2nc(c1)CNCCNCCNC2 | HT-22 | cell growth or viability, MTT | – | – | – | IC50 | 232 µM |
| NC(=O)[C@H](CCCN=C(N)CCl)NC(=O)c1ccccc1 | U-87 MG | annexin V-PI flow cytometry | – | 150.40 µM, 48 h | – | viable cells | 68.8 ± 9.41% |
| NS(=O)(=O)c1ccc(Nc2nc3nccc(-c4c(F)ccc(F)c4F)n3n2)cc1 | human peripheral blood lymphocytes | cell growth, resazurin | – | 72 h, together with: PHA stimulation | – | GI50 | > 10 µM |
| Cc1cn([C@H]2C=C[C@@H](CO)O2)c(=O)[nH]c1=O | PHA-stimulated human PBM cells | cell growth, trypan blue exclusion | – | 6 d | – | IC50 | > 100 µM |
| Cc1ncsc1-c1ccc(CNC(=O)[C@@H]2C[C@@H](O)CN2C(=O)[C@H](C(C)C)N2Cc3ccccc3C2=O)c(OCCNC(=O)c2ccccc2NC(=O)[C@H](CCCCN)NC(=O)[C@@H]2CCCN2C(=O)Cc2cccc3ccccc23)c1 | HCT-116 spheroids | – | PG-S peptide hydrogel | up to 64 µM, 3 days | – | viability | > 92% |

A few entries again:
| Substance | cell line | assay | test system | setting | how to read | quantity | result |
| --- | --- | --- | --- | --- | --- | --- | --- |
| CN(C)c1ccc(O)c2c1C[C@H]1C[C@H]3[C@H](N(C)C)C(O)=C(C(N)=O)C(=O)[C@@]3(O)C(O)=C1C2=O | COS | cytotoxicity, resazurin | – | 10% fetal calf serum | – | TC50 | > 100 µg/mL |
| O=C1OC2(c3ccc(O)cc3Oc3cc(O)ccc32)c2ccccc21 | bovine brain microvessel endothelial cells | – | BBMEC monolayer | 10 µM, up to 60 min, apical to basolateral | – | Papp | 3.42e-05 cm/s |
| CCc1ccc2oc(-c3ccc(O)c(O)c3)c(O)c(=O)c2c1 | H4IIE | MTT | – | concentration not given, 24 h | reference: with over without cyclosporin A | difference in toxicity | 29.7% |
| O=c1ccn([C@H]2C=C[C@@H](CO)O2)c(=O)[nH]1 | PHA-stimulated human PBM cells | cell growth, trypan blue exclusion | – | 6 d | – | IC50 | > 100 µM |
